# Experimental data collected from several papers.
# Lines come from different studies, so protocols differ. Several values in a cell are separate wells, animals, samples, runs or records. ± marks the error that the study gave.
SMILES,target or system,assay,setting,how to read,measurement,result
CC(=O)N[C@@H](CC(=O)O)C(=O)N[C@@H](CC(C)C)C(=O)N[C@@H](C)C(=O)N[C@@H](CC(=O)O)C(=O)COC(=O)c1c(C)cccc1C,"THP-1 cells, LPS-primed","pyroptosis, LDH release","25 µM, LPS 1 µg/mL, 4 h, together with: nigericin 5 µM, 2 h",,cell lysis,68.8% and 83.8%
C[C@@H]1CC[C@@H]([C@@](O)(CNCc2ccccc2F)COCc2ccccc2)[C@H](OCc2ccccc2)C1,HeLa,"cell growth or viability, MTT","30 µM, 72 h",,inhibition,96.2%
Cc1ncsc1-c1ccc(C(C)NC(=O)C2CC(O)CN2C(=O)C(NC(=O)CCCCCCCCCCN2CCCC(Nc3ncc(Cl)c(Nc4ccccc4S(=O)(=O)C(C)C)n3)C2)C(C)(C)C)cc1 (centres unmarked),22Rv1,"RNA-seq, item: N4BP3 mRNA",concentration not given,baseline: DMSO,log2 fold change,-1.42
O=S(=O)(Nc1ccc(OC(F)(F)F)cc1)N1CCCC(C2c3ccccc3CCc3ccccc32)C1 (centres unmarked),D425,"immunoblot, item: CIP2A",concentration not given,,protein level,decreased
C=CC(=O)N1CCCC(n2c(=O)c3ncccc3n(Cc3ccc(Oc4ccccc4)cc3)c2=O)C1 (centres unmarked),OCI-LY19,annexin V/PI flow cytometry,"500 nM, 72 h, Q1 quadrant",,annexin V/PI cells,1.62%
CCN(C(=O)c1cc(F)ccc1Oc1nncnc1N1CCC2(C1)CN([C@H](CCCN(C)CCOC)C(C)C)C2)C(C)C,MINO,cell growth or viability,72 h,,GI50,> 10 µM
[BH3-][P+]1(c2ccccc2)CCCCC1,HaCaT,annexin V/PI flow cytometry,"IC50, 72 h",,necrotic cells,0.05%
CC(=O)NCCCN(C)CCCNc1cccc2c1C(=O)c1cccc(NCCCN(C)CCCNC(C)=O)c1C2=O,SAS,"RNA-Seq, item: IGSF10 mRNA","1 µM, 6 h",baseline: untreated cells,log2 fold change,4.29
O=C(N/N=C/c1ccc(C[n+]2ccccc2)cc1)c1cccc(C(=O)N/N=C/c2ccc(C[n+]3ccccc3)cc2)n1,22CTA telomeric G4-DNA antiparallel,FRET melting,"1 µM, K10 buffer, DNA 0.2 µM",,ΔTm,11.5 ± 0.8 °C
CCC(=CCc1c(O)cc2c(c1O)C(=O)CC(c1ccc(OC)cc1O)O2)CC (centres unmarked),HeLa,"cell growth or viability, MTT","25 µM, 48 h",,inhibition,73.1%
O=C(NCCCSc1ccc2c(/C=C/c3ccccn3)n[nH]c2c1)c1ccc(Cl)c(C(F)(F)F)c1,BaF3,"cell growth or viability, CCK-8",,,GI50,> 10 µM
CC(=O)N[C@@H](CC(=O)O)C(=O)N[C@@H](CCCC(=O)O)C(=O)N[C@@H](CC(C)C)C(=O)N[C@@H](CC(=O)O)C(=O)COC(=O)c1c(C)cccc1C,"THP-1 cells, LPS-primed","pyroptosis, LDH release","25 µM, LPS 1 µg/mL, 4 h, together with: nigericin 5 µM, 2 h",,cell lysis,30.2%
CCC(=CCc1c(O)cc2c(c1O)C(=O)CC(c1ccc(O)c(OC)c1)O2)CC (centres unmarked),HeLa,"cell growth or viability, MTT","1.563 µM, 48 h",,inhibition,5.28%
O=c1cc(NCCc2ccccc2)c2ccccc2o1,COS-7 (untransfected),,"500 µM, unit not given",baseline: 3 µM ionomycin,calcium mobilisation signal,11.2 ± 2.41
CNS(=O)(=O)Nc1nccc(Cc2c(C)c3ccc(Oc4ncccc4F)cc3oc2=O)c1F,OE33,cell viability,7 days,,IC50,0.11 µM
O=S(=O)(N[C@H]1CCO[C@@H](C2c3ccc(F)cc3CCc3cc(F)ccc32)C1)c1ccc(OC(F)(F)F)cc1,D341,immunoblot,"concentration not given, 72 h",,Bad phosphorylation,decreased
O=C(N/N=C/c1cc[n+](Cc2ccccc2)c2ccccc12)c1cccc(C(=O)N/N=C/c2cc[n+](Cc3ccccc3)c3ccccc23)c1,22CTA telomeric G4-DNA antiparallel,FRET melting,"1 µM, K10 buffer, DNA 0.2 µM",,ΔTm,11.2 ± 0.3 °C
N#C[C@@H]1CC(F)(F)CN1C(=O)CNC(=O)c1ccnc2ccc(OCCCN3CCN(C(=O)CCc4ccc(O)c(CN5CCN6CC(=O)[O][Al-]([18F])([O]C(=O)C5)[O]c5ccc(CCC(=O)N7CCN(CCCOc8ccc9nccc(C(=O)NCC(=O)N%10CC(F)(F)C[C@H]%10C#N)c9c8)CC7)cc5C6)c4)CC3)cc12 (some centres unmarked),HT1080 cells expressing human FAP,,"60 min, 37 °C",,internalized fraction,81.4 ± 3.2%
CC12CCCC(NS(=O)(=O)c3ccc(Br)cc3)(C1)C1CC(C)(C)C1CC2 (centres unmarked),HT-29,"cell growth or viability, CCK-8",50 µM,,inhibition,15.8%
CN(C)CCN1CCN(c2ccc3nc(-c4ccc5nc(-c6ccc(C(F)(F)F)cc6)[nH]c5c4)[nH]c3c2)CC1,OVCAR-8,SRB,"10 µM, 48 h",,growth percent,53%

# Some of these lines once more:
SMILES,target or system,assay,setting,how to read,measurement,result
O=C(N/N=C/c1ccc(C[n+]2ccccc2)cc1)c1cccc(C(=O)N/N=C/c2ccc(C[n+]3ccccc3)cc2)n1,22CTA telomeric G4-DNA antiparallel,FRET melting,"1 µM, K10 buffer, DNA 0.2 µM",,ΔTm,11.5 ± 0.8 °C
CCC(=CCc1c(O)cc2c(c1O)C(=O)CC(c1ccc(OC)cc1O)O2)CC (centres unmarked),HeLa,"cell growth or viability, MTT","25 µM, 48 h",,inhibition,73.1%
O=C(NCCCSc1ccc2c(/C=C/c3ccccn3)n[nH]c2c1)c1ccc(Cl)c(C(F)(F)F)c1,BaF3,"cell growth or viability, CCK-8",,,GI50,> 10 µM
